Results gathered from unrelated publications.
Compare with care: the assays were run in different laboratories. Non-standard residues stand in square brackets, D forms with d. No end group written: not given here.
mcmA: mcmA (Methylobacterium extorquens, UniProt C5AV67)
B1: CyaY 1-106 (Escherichia coli, UniProt P27838); chain MNDSEFHRLADQLWLTIEERLDDWDGDSDIDCEINGGVLTITFENGSKIIINRQEPLHQVWLATKQGGYHFDLKGDEWICDRSGETFWDLLEQAATQQAGETVSFR
B2: rnj HA-tagged (Mycolicibacterium smegmatis, UniProt A0QVT2); chain MSAELAPPPPLAPGGLRVTALGGISEIGRNMTVFEHLGRLLIVDCGVLFPGHDEPGVDLILPDLRHIEDRLDEIEALVVTHAHEDHIGAIPFLLKLRPDIPVVGSKFTIALVREKCREHRLKPKFVEVAERQSSQHGVFECEYFAVNHSIPGCLAVAIHTGAGTVLHTGDIKLDQLPLDGRPTDLPGMSRLGDAGVDLFLCDSTNSEHPGVSPSESEVGPTLHRLIRGAEGRVIVACFASNVDRVQQIIDAAVALGRRVSFVGRSMVRNMGIARELGYLKVDDSDILDIAAAEMMPPDRVVLITTGTQGEPMAALSRMSRGEHRSITLTSGDLIILSSSLIPGNEEAVYGVIDSLSKIGARVVTNAQARVHVSGHAYAGELLFLYNGVRPRNVMPVHGTWRHLRANAALAASTGVPPENIVLAENGVSVDLVAGRASISGAVTVGKMFVDGLITGDVGDATLGERLILSSGFVSITVVVHRGTGRPAGPAHLISRGFSEDPKALEPVAQKVERELEALAADNVTDPTRIAQAVRRTVGKWVGETYRRQPMIVPTVIEI
B3: bfd 1-73 C43S (Pseudomonas aeruginosa, UniProt Q9HY80); chain MYVCLCQGVTDNQIRDAIYEGCCSYREVREATGVGTQCGKCASLAKQVVRETLNDLQSAQPVPAFGTTAFVAA
B4: spoIISB (Bacillus subtilis, UniProt O34800); selenomethionine; SeMet = C[Se]CC[C@H](N)C(=O)O; chain [SeMet]ERAFQNRCEPRAAKPFKILKKRSTTSVASYQVSPHTARIFKENERLIDEYKRKKA
B5: protein 1-329 K188A (Methylobacterium extorquens, UniProt C5AP93); chain MSATLPDMDTLRERLLAGDRAALARAITLAESRRADHRAAVRDLIDAVLPQTGRAIRVGITGVPGVGKSTTIDALGSLLTAAGHKVAVLAVDPSSTRTGGSILGDKTRMARLAIDRNAFIRPSPSSGTLGGVAAKTRETMLLCEAAGFDVILVETVGVGQSETAVADLTDFFLVLMLPGAGDELQGIAKGILELADMIAVNKADDGDGERRASAAASEYRAALHILTPPSATWTPPVVTISGLHGKGLDSLWSRIEDHRSKLTATGEIAGKRREQDVKWMWALVHERLHQRLVGSAEVRQATAEAERAVAGGEHSPAAGADAIATLIGL
B6: CpxR (Escherichia coli, UniProt P0AE88); phosphorylated aspartate; chain MNKILLVDDDRELTSLLKELLEMEGFNVIVAHDGEQALDLLDDSIDLLLLDVMMPKKNGIDTLKALRQTHQTPVIMLTARGSELDRVLGLELGADDYLPKPFNDRELVARIRAILRRSHWSEQQQNNDNGSPTLEVDALVLNPGRQEASFDGQTLELTGTEFTLLYLLAQHLGQVVSREHLSQEVLGKRLTPFDRAIDMHISNLRRKLPDRKDGHPWFKTLRGRGYLMVSAS
B7: Ffh/4.5S RNA R194A (Escherichia coli); chain MFDNLTDRLSRTLRNISGRGRLTEDNVKDTLREVRMALLEADVALPVVREFINRVKEKAVGHEVNKSLTPGQEFVKIVRNELVAAMGEENQTLNLAAQPPAVVLMAGLQGAGKTTSVGKLGKFLREKHKKKVLVVSADVYRPAAIKQLETLAEQVGVDFFPSDVGQKPVDIVNAALKEAKLKFYDVLLVDTAGALHVDEAMMDEIKQVHASINPVETLFVVDAMTGQDAANTAKAFNEALPLTGVVLTKVDGDARGGAALSIRHITGKPIKFLGVGEKTEALEPFHPDRIASRILGMGDVLSLIEDIESKVDRAQAEKLASKLKKGDGFDLNDFLEQLRQMKNMGGMASLMGKLPGMGQIPDNVKSQMDDKVLVRMEAIINSMTMKERAKPEIIKGSRKRRIAAGCGMQVQDVNRLLKQFDDMQRMMKKMKKGGMAKMMRSMKGMMPPGFPGR
B8: protein 1-329 (Methylobacterium extorquens, UniProt C5AP93); chain MSATLPDMDTLRERLLAGDRAALARAITLAESRRADHRAAVRDLIDAVLPQTGRAIRVGITGVPGVGKSTTIDALGSLLTAAGHKVAVLAVDPSSTRTGGSILGDKTRMARLAIDRNAFIRPSPSSGTLGGVAAKTRETMLLCEAAGFDVILVETVGVGQSETAVADLTDFFLVLMLPGAGDELQGIKKGILELADMIAVNKADDGDGERRASAAASEYRAALHILTPPSATWTPPVVTISGLHGKGLDSLWSRIEDHRSKLTATGEIAGKRREQDVKWMWALVHERLHQRLVGSAEVRQATAEAERAVAGGEHSPAAGADAIATLIGL
B9: bfd 1-73 K40A/C43S (Pseudomonas aeruginosa, UniProt Q9HY80); chain MYVCLCQGVTDNQIRDAIYEGCCSYREVREATGVGTQCGACASLAKQVVRETLNDLQSAQPVPAFGTTAFVAA
B10: hda (Escherichia coli, UniProt P69931); chain MNTPAQLSLPLYLPDDETFASFWPGDNSSLLAALQNVLRQEHSGYIYLWAREGAGRSHLLHAACAELSQRGDAVGYVPLDKRTWFVPEVLDGMEHLSLVCIDNIECIAGDELWEMAIFDLYNRILESGKTRLLITGDRPPRQLNLGLPDLASRLDWGQIYKLQPLSDEDKLQALQLRARLRGFELPEDVGRFLLKRLDREMRTLFMTLDQLDRASITAQRKLTIPFVKEILKL

Substance	partner	test	system	conditions	scale	quantity	value
B1 (CyaY 1-106)	IscS 1-404 (Escherichia coli, UniProt P0A6B7)	ITC	–	pH 8.0, 25 °C, NaCl 150 mM	–	molecule per partner	1
HIP-4.4	HLA-DRA/HLA-DRB1*04:01 (Homo sapiens)	competition with biotinylated peptide, competitor, competition binding assay	–	–	–	IC50	10 µM
Mos1 transposase T216A/D284A (Drosophila mauritiana)	MOS1 transposase T216A (Drosophila mauritiana)	NTS first strand cleavage	–	30 nM total protein	relative to: T216A transposase at 30 nM, higher = more cleavage	relative cleavage activity	46%
EDGGSWKYPDAFELSG (C3P-pd)	MSN 1-345 (Homo sapiens, UniProt P26038)	ITC	peptide	–	–	molecule per partner	1
B2 (rnj HA-tagged)	rne D694R/D738R (Mycolicibacterium smegmatis, UniProt A0R152)	co-IP	–	–	–	binding	binds
B3 (bfd 1-73 C43S)	bfrB 1-158 E85A (Pseudomonas aeruginosa, UniProt Q9HY79)	Fe2+-bipyridine formation	–	together with: NADPH 1 mM	–	iron release rate	0.018 min⁻¹
HIP-4.40	HLA-DRA/HLA-DRB1*04:01 (Homo sapiens)	competition with biotinylated peptide, competitor, competition binding assay	–	–	–	IC50	2.4 µM
Pcsk9 fragment (Mus musculus)	Ldlr (Mus musculus, UniProt P35951)	ELISA	plasma	vaccine group	–	bound PCSK9	26.4 ng/mL
Hcp (Agrobacterium tumefaciens)	tssL full length, His6 (Agrobacterium tumefaciens)	pull-down	membrane fraction	arsenate-treated, ATP-depleted cells, not purified	relative to: TssL-His in bound fraction, higher = more Hcp bound	relative Hcp signal	0.11
ALDOA (Oryctolagus cuniculus, UniProt P00883)	TRAP C-terminal cytoplasmic tail (Plasmodium falciparum)	SPR	–	two-state model	–	ka2	0.007 s⁻¹
Dync1h1 F580Y (Mus musculus)	Dctn1 (Mus musculus, UniProt O08788)	co-IP	brain extract	4 °C	relative to: wild type, lower = less binding	DHC/p150 ratio	1.3 fold
CAPZA fragment (Plasmodium berghei)	ACTB (Bos taurus, UniProt P60712)	phalloidin-stained actin filament length	–	55 nM	relative to: actin alone, higher = longer filaments	median filament length	4.1 µm
N-formyl-Met-Leu-Phe, N-formyl	FPR3 (Homo sapiens, UniProt P25089)	aequorin luminescence, agonist	CHO-K1	–	–	pEC50	< 6 pEC50
B4 (spoIISB)	spoIISA cytoplasmic domain 92-248, selenomethionine (Bacillus subtilis, UniProt O34853)	X-ray crystallography	–	–	–	binding	binds
RB1 fragment (Homo sapiens)	CDK2/CCNA2	phosphorylation	–	wild type, together with: E2F1-DP1	–	first-order rate constant	0.023 min⁻¹
RC-LH1 core complex (Rhodopseudomonas palustris, UniProt O83005)	protein (Rhodopseudomonas palustris, UniProt Q6N1K3)	pull-down	solubilised membranes	–	relative to: total RC-LH1 complexes, higher = more pulled down	relative pull-down	10%
candidalysin (Candida albicans)	GP1BA (Homo sapiens, UniProt P07359)	flow cytometry	MEG-01 megakaryocytes, releasates	15 µM, 1 h, 37 °C, together with: IgG isotype control	relative to: Mk-only control, higher = more platelets	platelet counts	13800 counts

Substance	partner	test	system	conditions	scale	quantity	value
RPN2 (Saccharomyces cerevisiae, UniProt P32565)	20S proteasome core particle (Saccharomyces cerevisiae, UniProt P21243)	cross-linking	–	–	–	binding	binds
TBK1 fragment I582A (Homo sapiens)	STING1 (Homo sapiens, UniProt Q86WV6)	IFN-β luciferase reporter	TBK1 KO HEK293T	together with: cGAMP	relative to: wild-type TBK1, higher = more reduction	reduction of IFN-β reporter	40%
B5 (protein 1-329 K188A)	mcmA	GTP hydrolysis	–	GAP activity, together with: MCM 2-fold	–	kcat	0.00233 s⁻¹
STAU1 (Homo sapiens, UniProt O95793-2)	UPF1 (Homo sapiens, UniProt Q92900)	reporter mRNA in eIF4E IP, tethering, IP	–	in cells, not purified	relative to: λN-HA-GFP, higher = more enrichment	mRNA enrichment	2.2 fold
FPELIQDTSTSFSTTR (ARAP3 1414-1429 (Homo sapiens))	SHANK1 652-765 (Homo sapiens, UniProt Q9Y566)	crystal structure	peptide	–	–	binding	binds
pilE 29-end (Neisseria meningitidis)	BSG 138-325 (Homo sapiens, UniProt P35613)	AFM force spectroscopy	–	pH 7.0, room temperature, NaCl 150 mM	–	interaction force	62 pN
hsiC1 fragment (Pseudomonas aeruginosa)	hsiB1 (Pseudomonas aeruginosa)	bacterial two-hybrid	–	48 h, 30 °C	higher = stronger interaction	β-galactosidase activity	4660 Miller units
isdB fragment F164D/Y167D (Staphylococcus aureus)	HBA1/HBB methemoglobin (Homo sapiens)	heme transfer from methemoglobin	–	–	–	heme transfer rate constant	0.004 s⁻¹
B6 (CpxR)	ArcA, phosphorylated (Escherichia coli, UniProt P0A9Q1)	competition, FRET	–	together with: phosphoramidate 20 mM	–	binding	binds
AVFLSREQANQVLQRRRR (consensus propeptide propeptide)	GGCX nanodisc-embedded (Homo sapiens, UniProt P38435)	HDX-MS	peptide	–	–	binding	binds
ISWI protein (Xenopus laevis, UniProt Q6DFM0)	HTA1/HTB1/HHT1/HHF1 nucleosome, 601 DNA flanks (Saccharomyces cerevisiae)	EMSA	–	–	–	subunits per oligomer	2 ISWI per nucleosome
B7 (Ffh/4.5S RNA R194A)	ftsY (Escherichia coli, UniProt P10121)	GTPase activity	–	–	relative to: wild type, higher = greater reduction	relative GTP hydrolysis rate	< 3 fold
B8 (protein 1-329)	mcmA	GTP hydrolysis	–	GAP activity, together with: MCM 2-fold	–	kcat	0.07 s⁻¹
B9 (bfd 1-73 K40A/C43S)	bfrB 1-158 (Pseudomonas aeruginosa, UniProt Q9HY79)	Fe2+-bipyridine formation	–	together with: NADPH 1 mM	–	iron release rate	0.09 min⁻¹
B10 (hda)	dnaN beta clamp 1-366 del148-154 (Escherichia coli, UniProt P0A988)	SEC-MALS	–	–	–	binding	binds
APOBEC3B (Homo sapiens, UniProt Q9UH17)	PFDN5 (Homo sapiens, UniProt Q99471-1)	immunoblot	HEK293T	together with: MG132 12.5 µM	relative to: cMyc alone, higher = more cMyc	cMyc protein level	7.5 fold

A few entries again:
Substance	partner	test	system	conditions	scale	quantity	value
RPN2 (Saccharomyces cerevisiae, UniProt P32565)	20S proteasome core particle (Saccharomyces cerevisiae, UniProt P21243)	cross-linking	–	–	–	binding	binds
B4 (spoIISB)	spoIISA cytoplasmic domain 92-248, selenomethionine (Bacillus subtilis, UniProt O34853)	X-ray crystallography	–	–	–	binding	binds
FPELIQDTSTSFSTTR (ARAP3 1414-1429 (Homo sapiens))	SHANK1 652-765 (Homo sapiens, UniProt Q9Y566)	crystal structure	peptide	–	–	binding	binds
STAU1 (Homo sapiens, UniProt O95793-2)	UPF1 (Homo sapiens, UniProt Q92900)	reporter mRNA in eIF4E IP, tethering, IP	–	in cells, not purified	relative to: λN-HA-GFP, higher = more enrichment	mRNA enrichment	2.2 fold
APOBEC3B (Homo sapiens, UniProt Q9UH17)	PFDN5 (Homo sapiens, UniProt Q99471-1)	immunoblot	HEK293T	together with: MG132 12.5 µM	relative to: cMyc alone, higher = more cMyc	cMyc protein level	7.5 fold
